Measured values gathered from unrelated publications.
Parts stem from different laboratories: compare values within a part only.

Block 1
Target: Interferon regulatory factor 3, full length, phosphomimetic (IRF3, Homo sapiens, UniProt Q14653, residues 1-427, S386D/S396D/S398D/S402D/T404D/S405D)
Method: protein-binding microarray
Form: double-stranded DNA, one strand shown
Medium: in vitro
Concentration: 2540 nM top
Notes: 60-bp whole probe
With: salmon DNA 0.4 mg/ml
Relative to: random background probes
Direction: higher = stronger binding
All sequences stand within: GCCTAGCAC … GTCTTGATTCGCTTGACGCTGCTG
Residues (chain): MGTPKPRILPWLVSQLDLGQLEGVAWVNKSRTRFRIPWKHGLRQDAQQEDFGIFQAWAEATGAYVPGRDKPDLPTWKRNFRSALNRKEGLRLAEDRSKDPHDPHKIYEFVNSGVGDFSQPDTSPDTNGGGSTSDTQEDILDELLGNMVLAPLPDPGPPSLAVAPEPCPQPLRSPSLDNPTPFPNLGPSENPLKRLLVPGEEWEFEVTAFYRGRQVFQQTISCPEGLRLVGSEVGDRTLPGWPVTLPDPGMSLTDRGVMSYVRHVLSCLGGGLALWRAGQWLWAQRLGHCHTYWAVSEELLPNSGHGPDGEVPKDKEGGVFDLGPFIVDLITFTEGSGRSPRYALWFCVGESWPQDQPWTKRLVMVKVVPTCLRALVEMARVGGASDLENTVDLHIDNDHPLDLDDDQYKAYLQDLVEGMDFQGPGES
Sequence	fitted relative affinity [z-score]
TTAGGTCTCGCTCTCGGTTAGTGCTAG	0.375
GACGCTTTCGGGTTTCGGGACGTGCTA	3.12
TCATTTTGCTTTCTTTAACTGTGCTAG	2.85
TTAGGTTTCCTTTCCTTTTAGTGCTAG	11.3
GACGGCATCGGGTTTCGGGACGTGCTA	0.335
TTAGAACTGAGACTGGATTTGTGCTAG	-0.521
TTCTTGCGGAGTTTCTTGCAGTGCTAG	0.593
TTTGGTCTCGGTCTCGGTTAGTGCTAG	1.29
GAGGATTTCGGGTTTCGAGACGTGCTA	1.62
TCATTTCTTTTTTTCTTACTGTGCTAG	3.33
TTAGGACTCGACTTTCGGTTAGTGCTA	1.19
GACGGAGTGCTTCTCCTGACGTGCTAG	-0.377
GACGGACTGGACACTGGGGTCGTGCTA	-0.606
TTAGGACTGGGTCTCGGTTAGTGCTAG	-0.611
TTAGATATCGGGCTTCGATTAGTGCTA	-0.276
TTGTTTCTAATATTCTGCTTGTGCTAG	1.69
TCAAGTTTTCTTTTCCAACTGTGCTAG	5.56
TTAGAACTGAGGCTGGATTAGTGCTAG	-0.688
TTAGGTATCCTTTTCCTATAGTGCTAG	8.03
GACGCACTGAGACTGGAGACGTGCTAG	-0.323

Block 2
Target: RNA binding protein fox-1 homolog 2, RRM domain, GST-SBP tag (RBFOX2, Homo sapiens, UniProt O43251-10, residues 100-194)
Method: RNA Bind-n-Seq
Form: RNA
Medium: in vitro
Concentration: 365 nM
Notes: natural RNA segment, single round, ends assumed
Relative to: no-protein control
Direction: higher = stronger binding
Construct (chain): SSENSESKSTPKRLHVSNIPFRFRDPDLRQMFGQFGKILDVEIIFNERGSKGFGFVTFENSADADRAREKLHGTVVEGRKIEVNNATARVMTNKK
Sequence	RBNS enrichment (R)
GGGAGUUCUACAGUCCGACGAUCUUGCCACUGAAAUGUUUUUUUACUUGUUGAUAGUGUCAGGGCCCCCCUUCCAUCCCCAUGGGCUUGACUCUCAACCUGUUACUGUAAACUGCGAUCCUUCCCACCGUCAGUGGAAUUCUCGGGUGCCAA	0.704
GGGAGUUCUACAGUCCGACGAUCAGAGAAAACAUUCUAUAGCCCUCCUUCCUAGGUGUUACCAUUCACUGAAUCUUCUCUCAGAGGGAGAUGAGCAAUUGUCAGUCAGGAUAAUUCUGUUUGCUAAAUGUUGCUGGAAUUCUCGGGUGCCAA	0.374
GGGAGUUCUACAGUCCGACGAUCAUGGGCUCGCAAGGAUGGGUGCCGCCGUGGGAGCCCUGCCUCUGGUGCUGGCAAGGGAUUGGGUUUGUGUGGGUGUCUCUAGCCUGCAGAGUGCAGUGAGUGAGAGUCCUUGGAAUUCUCGGGUGCCAA	0.959
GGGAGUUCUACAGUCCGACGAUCGAGAUCCUCCUUCCUCUGCCUCGGGAGGGCUGGGGCUAAAGGCACACAGCACCAAACCCAGCUAAGUACAGCGUCUAAACAUUUCUUAAAGCAUAUGAUAUUGGUUUUAAUGGAAUUCUCGGGUGCCAA	0.514
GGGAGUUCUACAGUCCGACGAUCUGGACCAGAAGCCUGGUCUGUGCCUAGGAUGACACUGGCCCCAGAGAUGCUAGAGUCGACUGCACUCUCUCCUUAGCUGCAGACCAUGCACAGUGCCUGGGGCGGAAGGAUGGAAUUCUCGGGUGCCAA	2.33
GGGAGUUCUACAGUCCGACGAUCUUUUUAAUGAUCAGCUUUUCUGUUUAUUGUAAAACUAAGUUAAAAAAUAAAAGGUUAAUGAGAAAUGAAAUGCUAACUGUAUUGACUGUGUACAAAGCUAAAGCAAGAAGUGGAAUUCUCGGGUGCCAA	1.13
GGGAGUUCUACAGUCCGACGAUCAUGACGCCACUCUGAAGAGUAGGUGAGCGCUUUGCAGUCACAGAAGGUGGCAUCUGACUGCGGCUCAUACAGGUCACCCUGAAGGGCCACGUGCUUUUAGCAGUUGGCUGUGGAAUUCUCGGGUGCCAA	0.288
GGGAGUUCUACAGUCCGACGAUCUGUCUCUGUUGUGAGCUUGCUCUUUGUUUUAAAAGGUGCCAGGGGUACAUUUUUGCACUGAAACCUAAAGAUGUUUUAAAAACACUUUUCACAGAAAUAGUCCUUGUCAUUGGAAUUCUCGGGUGCCAA	1.1
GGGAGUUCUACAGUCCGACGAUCUCUGCAGAGAGGAAGAUAUGUUUUUGCUGCUUUAUAUAAAAAUGGUUUUUUUAAGUUAUUUUAAAAAUCUAGCUUCCCUUUUUGAUUAAGAUUGCCAUCUUGCUUUUAGGUGGAAUUCUCGGGUGCCAA	0.976
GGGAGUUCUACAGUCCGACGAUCCAGCACCAGGGAAGCUAAGGUGGAAGGUUGUUUGAGUUUGGAACUGGGCUAGAGAGUGAGUUAUUGCUCACUCUGAGUUCUGCGCUACUCUGGGGGACUCUGUUUCAAGGUGGAAUUCUCGGGUGCCAA	0.411
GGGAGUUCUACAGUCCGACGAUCCAAGCCUUGCGGUCCAGAUGAGCAUGCCGGAAGGUUUCCUCAUGUAGCGUUCCCACUGGAGCUGUGUGCGCGGUGUGCAAAGGCGAAAAGAUAUGUCAUAGUUGCCAUAAUGGAAUUCUCGGGUGCCAA	4.72
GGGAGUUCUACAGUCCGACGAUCUAGAGAAGCAGGAGAACAGACAAUCUGGUGUCCAGCCCUAAAGAACCACCAGGCGCUGUUAAGCAAUACCUGGGGACGCACUAAAAUAGCUGCAGCGGGAUGCUGGGGAGUGGAAUUCUCGGGUGCCAA	0.353

Block 3
Target: Histone acetyltransferase KAT6A, winged helix 2, GST fusion (KAT6A, Homo sapiens, UniProt Q92794, residues 85-181)
Method: protein binding microarray
Form: double-stranded DNA, one strand shown
Medium: in vitro
Concentration: not given
Notes: 8-mer, flanks averaged, mean of 2 arrays, mostly near background
Relative to: not given
Direction: higher = stronger binding
Target sequence (chain): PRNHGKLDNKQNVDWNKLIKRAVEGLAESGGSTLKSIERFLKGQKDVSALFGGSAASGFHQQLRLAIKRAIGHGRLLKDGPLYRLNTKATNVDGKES
Sequence	E-score
ATGTCGAA	0.0313
GAGTACCA	-0.0608
CCATAAGC	-0.0176
CAGATGGG	-0.0902
CGTTGATA	0.0114
CGAAATAC	0.0176
GGCTAAAA	-0.188
ACGGTGCT	0.0149
GAGATATC	0.0685
ATGCAACA	-0.00792
AGATAAGG	0.0347
CATAATTC	-0.0803
TCTTGAAA	0.113
CACCGCCG	0.0671
CAAGAATG	-0.0304
AACTTGGA	-0.129
GGGCATAA	-0.0325
CGACGGGC	0.21
CACAGCAA	0.271
CAACAGGA	-0.237
CGCTACAA	-0.203

Block 4
Target: RING finger protein unkempt homolog, zinc fingers 1-6, GST-SBP tag (UNK, Homo sapiens, UniProt Q9C0B0, residues 30-357)
Method: RNA Bind-n-Seq
Form: RNA
Medium: in vitro
Concentration: not given
Notes: RNA with constant flanks, ends assumed
Relative to: input RNA pool
Direction: higher = stronger binding
Target sequence (chain): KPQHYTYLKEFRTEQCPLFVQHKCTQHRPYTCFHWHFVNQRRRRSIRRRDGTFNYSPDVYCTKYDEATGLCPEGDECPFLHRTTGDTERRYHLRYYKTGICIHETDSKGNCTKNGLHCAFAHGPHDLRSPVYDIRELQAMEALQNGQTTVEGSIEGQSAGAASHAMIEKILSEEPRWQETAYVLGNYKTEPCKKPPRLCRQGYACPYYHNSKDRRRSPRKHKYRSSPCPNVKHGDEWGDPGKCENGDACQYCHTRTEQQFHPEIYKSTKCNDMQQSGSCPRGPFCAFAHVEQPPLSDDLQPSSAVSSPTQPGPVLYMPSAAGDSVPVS
Sequence	bound/input enrichment [ratio]
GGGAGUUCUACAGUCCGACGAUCCUCUUAAAAGACUAUGAAGAUAAAAUUCGGGAGGAGUAUGAGCAAAUCCUCAAUACCAAACCCGCAGAACAAUAUGAAUCUUUUGUGAAAUUCACACAUGAUCAGAUUAUGCGACGGUAUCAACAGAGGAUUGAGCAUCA	0.194
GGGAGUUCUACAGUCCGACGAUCUCGACUCCAGCGGCCCCGACAGCACGGAAGCAGCUGGAUAAAGAACAGGACCUUGCCUCACCGUAUUCGAUCAGAUUCAGAAGAUAUCUGUUUAUUUACGAAGGAUGAACCCAAUUCAACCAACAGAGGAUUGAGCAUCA	0.0393
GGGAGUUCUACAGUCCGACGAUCGCCCAGGGUCGCCAUGUAGAAGUUUUUGAGCUCCUCAAACCUCCAUCUGGAGGCCUUGGGUUCCGUGUUGUGGGACUAAGAAGUGAAAACAGAGGAGAGCUGGGAAUAUUUGUUCAAGAGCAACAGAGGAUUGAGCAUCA	0.155
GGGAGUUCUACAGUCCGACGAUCUUGAAAAACACAGAUAUCAAAGUUGUUGAUUUUGGAAGUGCAACAUAUGACGACGAACAUCACCGUACUUUGGUGUCCACAAGGCACUACAGGGCUCCAGAGGUCAUUUUGGCUCUAGGUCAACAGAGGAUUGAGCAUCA	0.226
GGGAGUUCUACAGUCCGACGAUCCUUACCUCUUACAAAAAAAAGAAAAAAAAAGAAAAAGUUCAUUUCUUCAUUCUGUUUGUAUCCCGCGAAGCUGAAUGUCAGAAGCCCCUCUGUCCACACACAAAGUCUGCAUGUAUUGGUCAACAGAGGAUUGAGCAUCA	0.642
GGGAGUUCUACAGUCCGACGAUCGCUUGCUUGAACGGGUCUCCUCAGCGGCGGCUGGAGUCGAAUUUGGAAAUACUGCACAUCCCGUUGGCUCCAAAUUGUAAACCACAGGAUGAGUAUUCAGUGGGCAUGAGAGAUUGAGAACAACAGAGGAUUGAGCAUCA	0.313
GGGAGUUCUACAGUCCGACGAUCGUAAUAGUAGCAAAUCCUAGGGAAGAAAUAAUCGUGAAAAAUAAAGAUGAAGAAGAGAAGUCCGUCCGUAAUAACAUCCUUCAUAAUCAACAAGAGUUACCUACAGCUCUUACUAAAUUGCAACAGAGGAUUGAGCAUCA	1.8
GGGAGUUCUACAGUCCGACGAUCGUCAGUACACCAAGUUCUGGUCUGCUCAUGCUUCAUUGUCCAGAAAGCAGCAGGAAAUUGCCGUUCCGUUGUCAUCAAGCAGGAAGCAAAUGCAACACCGACCAAGGCAGUUUAGGUCAACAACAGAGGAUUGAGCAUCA	0.302
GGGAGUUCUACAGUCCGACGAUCAAGCCAAUUCAGAACUUCAUUGAAACUGACACUACAGAAGCUGUAGGAAAUGUAUGUCAGCCCGCACAAGCAGAGCACAUAUUAAAAUCCUGUCCAUUUCGGAGCCCUAUUCCAAUCUGGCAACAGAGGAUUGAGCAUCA	0.146
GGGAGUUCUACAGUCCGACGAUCGCCAUUGGUCUUAUGGGUUAUAGGUUGAGUCCUCAAACAUUAACUACUAUUGUUAAACGUUACCGCAAGAAUGGCAGAAUUUUCUUUGAUGAUUAUGUUGCUUGCUGUGUGAAGCUUCGACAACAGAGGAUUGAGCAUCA	0.12
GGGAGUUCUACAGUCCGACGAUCGGCUGCAGAGUCAUUCAGCGUAUCUUAGAGCACUGCACGGCAGAGCAGACCUUACCCAUCUCCGAAGAACUUCACCAACACACAGAACAGUUGGUACAGGAUCAGUAUGGCAAUUAUGUUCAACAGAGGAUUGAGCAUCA	0.385

Excerpt of the above (block 1):
Sequence	fitted relative affinity [z-score]
TTAGGTCTCGCTCTCGGTTAGTGCTAG	0.375
TTAGATATCGGGCTTCGATTAGTGCTA	-0.276
GACGGACTGGACACTGGGGTCGTGCTA	-0.606
GACGCACTGAGACTGGAGACGTGCTAG	-0.323
TTAGAACTGAGGCTGGATTAGTGCTAG	-0.688
TCATTTTGCTTTCTTTAACTGTGCTAG	2.85
TTAGGTTTCCTTTCCTTTTAGTGCTAG	11.3
TTTGGTCTCGGTCTCGGTTAGTGCTAG	1.29
TTCTTGCGGAGTTTCTTGCAGTGCTAG	0.593
TCATTTCTTTTTTTCTTACTGTGCTAG	3.33
